# Measured values from different studies.
# Parts stem from different laboratories: compare values within a part only. Changes are numbered by the printed parent chain.

# Block 1 — target: CCNB3, cyclin fold, Cln2 fusion (human); technique: yeast growth competition, sequencing; sample: yeast; notes: weak parent motif; relative to: not given; direction: higher = stronger binding
# Starting sequence: RB1 docking peptide (human); PKPLKKLRFDIEG
Variant,normalised enrichment score
PKPLKKLRKDIEG [F9K],0.209
PKPLKKLRFDIVG [E12V],0.0109
PYPLKKLRFDIEG [K2Y],0.907
PKKLKKLRFDIEG [P3K],-0.134
PKPLKKLRFPIEG [D10P],0.0796

# Block 2 — technique: protein binding microarray; molecule type: double-stranded DNA, one strand shown; sample: in vitro; concentration: not given; relative to: not given; direction: higher = stronger binding
# Target: Histone acetyltransferase KAT6A, winged helix 1, GST fusion (KAT6A, Homo sapiens, UniProt Q92794, residues 1-85)
# Notes: 8-mer, flanks averaged, mean of 2 arrays, mostly near background
# Residues (chain): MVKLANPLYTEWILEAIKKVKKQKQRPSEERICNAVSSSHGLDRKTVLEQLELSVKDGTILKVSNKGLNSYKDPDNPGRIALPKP
Oligonucleotide,E-score
CCGCTTAG,0.285
TACAAGTA,-0.274
ACACCGAC,0.242
CAATTAAG,0.0364
CAAGTAAC,-0.0468
ACGTACAT,-0.121
TGCGTACA,0.0291

# Block 3 — target: FOS, bZIP domain (human); technique: DHFR protein complementation; sample: yeast; relative to: wild-type JUN-FOS pair; direction: higher = stronger binding
# Notes: single substitutions, most at no-binding floor
# Starting sequence: JUN, bZIP domain (human); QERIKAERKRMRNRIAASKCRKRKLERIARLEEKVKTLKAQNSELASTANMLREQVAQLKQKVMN; partner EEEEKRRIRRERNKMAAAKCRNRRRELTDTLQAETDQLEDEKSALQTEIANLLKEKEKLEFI
Variant,binding fitness [natural log]
I28R,-0.0836
A49G,-1.01
K36R,0.0501
S47I,0.00126
I28H,-0.119

# Mixed results
Substance,target,test,system,setting,scale,endpoint,result
"PhoQ, residues 284 288 289 292 302 303 NLGVHL","PhoP, residues 12 14 15 18 19 STWGI (Escherichia coli, UniProt P23836)","Sort-seq, refers to: YFP reporter",E. coli,"PhoQ-PhoP variant library, added: 10 µM Mg2+","relative to: high Mg2+ state, higher = stronger signaling",fold induction,33.5

# Repeated from above (block 1):
Variant,normalised enrichment score
PKKLKKLRFDIEG [P3K],-0.134
